Experimental data gathered from unrelated publications.
Numbered parts are unrelated; each lists some results of a single study.
Sequence of UniProt P54756 (whole entry, looked up): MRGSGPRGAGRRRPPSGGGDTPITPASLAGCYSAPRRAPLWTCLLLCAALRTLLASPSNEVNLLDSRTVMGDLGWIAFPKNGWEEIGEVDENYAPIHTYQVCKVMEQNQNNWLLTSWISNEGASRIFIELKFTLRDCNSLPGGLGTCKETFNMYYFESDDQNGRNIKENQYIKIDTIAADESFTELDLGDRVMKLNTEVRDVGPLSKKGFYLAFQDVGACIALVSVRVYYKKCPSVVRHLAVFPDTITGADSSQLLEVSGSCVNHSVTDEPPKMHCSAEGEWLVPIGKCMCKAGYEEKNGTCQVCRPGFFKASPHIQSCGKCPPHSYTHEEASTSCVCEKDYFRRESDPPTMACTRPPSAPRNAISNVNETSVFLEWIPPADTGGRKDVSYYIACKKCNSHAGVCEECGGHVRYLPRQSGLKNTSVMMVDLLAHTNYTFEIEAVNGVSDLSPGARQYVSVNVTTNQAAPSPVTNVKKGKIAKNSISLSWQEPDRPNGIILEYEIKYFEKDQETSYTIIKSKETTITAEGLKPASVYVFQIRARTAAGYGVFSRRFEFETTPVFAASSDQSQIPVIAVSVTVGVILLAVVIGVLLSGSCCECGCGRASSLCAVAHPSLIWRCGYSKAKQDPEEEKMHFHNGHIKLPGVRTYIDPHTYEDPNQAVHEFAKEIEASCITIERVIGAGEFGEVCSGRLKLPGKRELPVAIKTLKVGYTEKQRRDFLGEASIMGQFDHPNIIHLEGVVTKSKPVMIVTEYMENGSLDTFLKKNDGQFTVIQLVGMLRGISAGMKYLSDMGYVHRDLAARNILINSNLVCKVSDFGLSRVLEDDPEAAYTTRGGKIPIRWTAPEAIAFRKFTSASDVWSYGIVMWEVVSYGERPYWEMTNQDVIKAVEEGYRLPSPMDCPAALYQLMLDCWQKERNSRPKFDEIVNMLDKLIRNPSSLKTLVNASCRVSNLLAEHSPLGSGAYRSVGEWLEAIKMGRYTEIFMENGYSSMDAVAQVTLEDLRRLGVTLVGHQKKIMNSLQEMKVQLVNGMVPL
Sequence of UniProt Q9HBH9 (whole entry, looked up): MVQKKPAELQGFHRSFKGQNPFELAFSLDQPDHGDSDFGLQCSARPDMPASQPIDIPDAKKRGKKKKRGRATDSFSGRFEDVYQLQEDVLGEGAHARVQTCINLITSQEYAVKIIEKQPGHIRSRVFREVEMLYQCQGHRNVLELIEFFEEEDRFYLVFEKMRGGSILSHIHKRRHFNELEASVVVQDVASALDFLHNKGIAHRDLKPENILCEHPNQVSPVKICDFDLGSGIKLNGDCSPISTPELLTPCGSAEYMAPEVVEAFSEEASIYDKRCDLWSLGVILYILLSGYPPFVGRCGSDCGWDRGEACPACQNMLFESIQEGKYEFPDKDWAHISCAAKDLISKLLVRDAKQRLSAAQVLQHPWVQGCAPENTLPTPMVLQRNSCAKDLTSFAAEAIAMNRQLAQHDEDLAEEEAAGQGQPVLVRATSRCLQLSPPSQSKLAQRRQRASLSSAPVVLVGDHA
Sequence of UniProt P07948 (whole entry, looked up): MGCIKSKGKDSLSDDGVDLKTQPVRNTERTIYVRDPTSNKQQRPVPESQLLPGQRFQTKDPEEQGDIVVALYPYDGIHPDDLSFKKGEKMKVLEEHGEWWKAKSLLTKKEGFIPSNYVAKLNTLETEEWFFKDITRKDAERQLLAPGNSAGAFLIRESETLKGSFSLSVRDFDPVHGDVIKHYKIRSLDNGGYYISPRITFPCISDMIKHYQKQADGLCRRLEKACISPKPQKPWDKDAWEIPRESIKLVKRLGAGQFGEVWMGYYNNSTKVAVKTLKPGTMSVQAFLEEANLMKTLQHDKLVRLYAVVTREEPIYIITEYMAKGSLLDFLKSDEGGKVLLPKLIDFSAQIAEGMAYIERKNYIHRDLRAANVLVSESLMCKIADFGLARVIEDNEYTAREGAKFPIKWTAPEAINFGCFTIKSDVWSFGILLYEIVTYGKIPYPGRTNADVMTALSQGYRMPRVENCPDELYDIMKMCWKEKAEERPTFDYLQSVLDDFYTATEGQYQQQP

Series 1 — effect on: enzyme activity; action: inhibitor; tested at: 10 µM
Target: Calcium/calmodulin-dependent protein kinase type II subunit alpha (CAMK2A, Homo sapiens, UniProt Q9UQM7)
Sequence of UniProt Q9UQM7 (whole entry, looked up): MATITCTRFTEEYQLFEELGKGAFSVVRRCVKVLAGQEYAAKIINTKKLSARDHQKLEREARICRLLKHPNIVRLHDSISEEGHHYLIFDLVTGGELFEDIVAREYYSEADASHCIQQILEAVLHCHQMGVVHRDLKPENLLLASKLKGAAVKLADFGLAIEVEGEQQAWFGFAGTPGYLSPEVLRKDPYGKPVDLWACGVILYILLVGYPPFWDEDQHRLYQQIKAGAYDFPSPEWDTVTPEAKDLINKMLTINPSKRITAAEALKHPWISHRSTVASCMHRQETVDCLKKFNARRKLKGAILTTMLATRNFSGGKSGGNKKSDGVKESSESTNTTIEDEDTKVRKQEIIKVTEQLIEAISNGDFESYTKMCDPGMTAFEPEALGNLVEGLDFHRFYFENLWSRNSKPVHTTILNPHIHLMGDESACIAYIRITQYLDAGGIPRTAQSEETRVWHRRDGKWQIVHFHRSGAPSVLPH
COC[C@]12CN(C)C3[C@@H]4[C@H](OC)[C@H]1[C@@]3([C@@H](OC)C[C@H]2O)[C@@H]1C[C@@]2(O)[C@H](OC(=O)c3ccccc3)[C@@H]1[C@]4(O)[C@@H](O)[C@@H]2OC has an inhibition of 31%.
With O=[N+]([O-])c1ncc[nH]1 the inhibition was -15%.
The inhibition of CN[C@H]1[C@H](O)[C@H](O[C@@H]2[C@@H](O)[C@H](O[C@H]3O[C@H](C(C)O)[C@@H](O)[C@H](O)[C@H]3N)[C@@H](N)C[C@H]2N)OC[C@@]1(C)O (some centres unmarked) is reported as 25%.

Series 2 — effect on: enzyme activity; action: inhibitor; tested at: 77 µM
Target: DNA polymerase theta, ATPase domain (POLQ, Homo sapiens, UniProt O75417)
Sequence of UniProt O75417 (whole entry, unmodified, looked up): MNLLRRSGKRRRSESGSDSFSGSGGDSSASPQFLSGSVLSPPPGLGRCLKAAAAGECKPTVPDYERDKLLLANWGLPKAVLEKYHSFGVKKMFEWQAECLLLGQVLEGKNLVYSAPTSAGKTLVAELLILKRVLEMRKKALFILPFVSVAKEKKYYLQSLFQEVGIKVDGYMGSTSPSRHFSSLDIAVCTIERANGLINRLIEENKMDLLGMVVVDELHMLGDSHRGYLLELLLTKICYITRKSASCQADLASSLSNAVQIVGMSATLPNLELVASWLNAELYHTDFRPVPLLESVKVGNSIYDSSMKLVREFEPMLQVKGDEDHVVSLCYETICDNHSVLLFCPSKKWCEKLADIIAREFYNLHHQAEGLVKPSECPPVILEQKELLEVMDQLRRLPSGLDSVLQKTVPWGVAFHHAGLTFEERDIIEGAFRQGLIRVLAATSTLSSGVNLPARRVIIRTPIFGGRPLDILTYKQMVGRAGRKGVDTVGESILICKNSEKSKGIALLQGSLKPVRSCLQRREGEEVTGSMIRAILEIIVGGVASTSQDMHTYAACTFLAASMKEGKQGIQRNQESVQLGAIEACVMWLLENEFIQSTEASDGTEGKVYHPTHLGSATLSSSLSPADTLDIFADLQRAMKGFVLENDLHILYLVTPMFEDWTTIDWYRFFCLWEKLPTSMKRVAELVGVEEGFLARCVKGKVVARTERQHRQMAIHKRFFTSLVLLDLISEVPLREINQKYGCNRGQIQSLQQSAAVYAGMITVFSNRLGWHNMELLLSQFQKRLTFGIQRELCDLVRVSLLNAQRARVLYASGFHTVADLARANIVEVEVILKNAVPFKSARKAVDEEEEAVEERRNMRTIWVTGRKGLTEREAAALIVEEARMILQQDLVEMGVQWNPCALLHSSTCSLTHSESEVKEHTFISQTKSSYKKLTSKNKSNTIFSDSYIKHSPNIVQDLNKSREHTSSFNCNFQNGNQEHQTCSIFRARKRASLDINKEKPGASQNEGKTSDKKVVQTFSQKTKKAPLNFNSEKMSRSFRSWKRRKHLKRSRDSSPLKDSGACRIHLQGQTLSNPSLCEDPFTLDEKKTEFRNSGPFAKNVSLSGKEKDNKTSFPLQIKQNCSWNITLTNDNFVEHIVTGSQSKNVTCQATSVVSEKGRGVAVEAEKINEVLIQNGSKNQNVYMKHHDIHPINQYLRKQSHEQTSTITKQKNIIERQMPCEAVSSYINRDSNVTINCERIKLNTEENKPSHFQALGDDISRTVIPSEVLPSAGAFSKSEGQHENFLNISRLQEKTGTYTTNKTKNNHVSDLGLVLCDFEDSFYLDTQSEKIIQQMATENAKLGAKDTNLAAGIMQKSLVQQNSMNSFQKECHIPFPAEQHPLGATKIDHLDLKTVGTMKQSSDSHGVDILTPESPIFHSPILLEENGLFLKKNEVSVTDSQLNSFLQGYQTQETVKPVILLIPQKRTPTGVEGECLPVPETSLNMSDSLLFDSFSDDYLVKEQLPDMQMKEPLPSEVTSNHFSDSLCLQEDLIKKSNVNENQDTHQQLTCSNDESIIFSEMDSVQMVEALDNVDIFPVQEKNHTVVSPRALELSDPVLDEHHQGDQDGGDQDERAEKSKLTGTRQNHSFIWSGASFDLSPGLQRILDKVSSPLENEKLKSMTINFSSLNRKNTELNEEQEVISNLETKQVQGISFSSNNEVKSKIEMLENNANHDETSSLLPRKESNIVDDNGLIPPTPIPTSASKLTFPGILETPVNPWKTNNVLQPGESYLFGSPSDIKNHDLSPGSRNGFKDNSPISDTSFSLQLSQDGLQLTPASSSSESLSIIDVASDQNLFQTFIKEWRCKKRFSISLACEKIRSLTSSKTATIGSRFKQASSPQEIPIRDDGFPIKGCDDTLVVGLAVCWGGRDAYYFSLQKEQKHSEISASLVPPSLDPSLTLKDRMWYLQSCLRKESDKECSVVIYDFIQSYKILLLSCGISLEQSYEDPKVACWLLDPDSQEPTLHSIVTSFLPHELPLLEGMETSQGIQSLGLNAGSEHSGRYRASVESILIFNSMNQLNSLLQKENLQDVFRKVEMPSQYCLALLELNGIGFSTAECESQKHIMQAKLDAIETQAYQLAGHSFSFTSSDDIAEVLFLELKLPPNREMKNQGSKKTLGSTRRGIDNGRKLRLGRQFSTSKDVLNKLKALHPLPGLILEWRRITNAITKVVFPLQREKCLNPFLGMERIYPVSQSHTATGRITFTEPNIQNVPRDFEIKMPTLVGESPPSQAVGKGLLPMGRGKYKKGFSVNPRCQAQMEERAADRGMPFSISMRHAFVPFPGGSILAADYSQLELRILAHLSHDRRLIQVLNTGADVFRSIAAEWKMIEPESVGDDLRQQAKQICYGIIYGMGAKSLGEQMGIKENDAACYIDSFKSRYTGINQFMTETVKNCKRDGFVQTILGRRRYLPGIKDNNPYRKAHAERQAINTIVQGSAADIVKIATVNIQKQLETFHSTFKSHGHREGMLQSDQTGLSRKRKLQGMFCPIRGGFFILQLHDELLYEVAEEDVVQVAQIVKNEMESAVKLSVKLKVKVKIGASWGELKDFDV
CCN(CC)c1ncnc2c1ncn2[C@@H]1O[C@H](COP(=O)(O)OP(=O)(O)C(Br)(Br)P(=O)(O)O)[C@@H](O)[C@H]1O has a remaining activity of 98.1%.
CCN1CCN(C(=O)Cc2ccc(Nc3ncc(F)c(Nc4ccc(C(=O)Nc5ccccc5Cl)cc4)n3)cc2)CC1 gave a remaining activity of 93.4%.
CCCN1CCc2cccc3c2[C@H]1Cc1ccc(O)c(O)c1-3 has a remaining activity of 103%.
O=c1ccc2[nH]cc(C3=CCNCC3)c2[nH]1 has a remaining activity of 95.8%.
For COc1ccc(C(=O)OC2C[C@H]3CC[C@@H](C2)N3C)cc1OC (some centres unmarked), the remaining activity was 99.3%.
COc1c2c(cc3c1OCO3)CCN(C)C2 gave a remaining activity of 101%.
With CCCCCOc1ccc(-c2ccc(-c3ccc(C(=O)N[C@H]4C[C@@H](O)[C@@H](O)NC(=O)[C@@H]5[C@@H](O)[C@@H](C)CN5C(=O)[C@H]([C@@H](C)O)NC(=O)[C@H]([C@H](O)[C@@H](O)c5ccc(O)cc5)NC(=O)[C@@H]5C[C@@H](O)CN5C(=O)[C@H]([C@@H](C)O)NC4=O)cc3)cc2)cc1 the remaining activity was 91.8%.

Series 3 — cell line: mouse MPNST tumor cells; technique: high-content immunofluorescence imaging; item: nuclear SOX9; tested at: 10 µM; time: 12 h; notes: mean of 2 replicates; baseline: DMSO control; reading: higher = more nuclear SOX9
O=C(Oc1ccc([N+](=O)[O-])cc1)N1CCN(Cc2cccc(Oc3ccccc3)c2)CC1: “nuclear SOX9 intensity” 98.1 % of DMSO.
For CC(N)C(O)c1ccccc1 (centres unmarked), “nuclear SOX9 intensity” read 109 % of DMSO.
Cc1cccc(NC(=O)N[C@@H]2N=C(c3ccccc3)c3ccccc3N(C)C2=O)c1 — result for “nuclear SOX9 intensity”: 99.1 % of DMSO.

Series 4 — effect on: enzyme activity; action: inhibitor; tested at: 0.5 µM; baseline: control
SMILES: COC[C@H]1OC(=O)c2coc3c2[C@@]1(C)C1=C(C3=O)[C@@H]2CCC(=O)[C@@]2(C)C[C@H]1OC(C)=O
It gave 94.9% for remaining activity (CSNK2A1 (Homo sapiens, UniProt P68400)).
For KIT (Homo sapiens, UniProt P10721): remaining activity read 91.3%.
For EPHA5 (Homo sapiens, UniProt P54756): remaining activity read 86.5%.
For IRAK4 (Homo sapiens, UniProt Q9NWZ3): remaining activity read 86.3%.
For PRKG1 (Homo sapiens, UniProt Q13976): remaining activity read 97.4%.
It gave 103% for remaining activity (LYN (Homo sapiens, UniProt P07948)).
It gave 104% for remaining activity (BTK (Homo sapiens, UniProt Q06187)).
PRKCD (Homo sapiens, UniProt Q05655) — remaining activity: 96.1%.
The remaining activity was 74.7% (NEK4 (Homo sapiens, UniProt P51957)).
For MKNK2 (Homo sapiens, UniProt Q9HBH9): remaining activity read 80.2%.
For MAP3K10 (Homo sapiens, UniProt Q02779): remaining activity read 102%.
AKT3 (Homo sapiens, UniProt Q9Y243) — remaining activity: 94.6%.
MAP4K2 (Homo sapiens, UniProt Q12851) — remaining activity: 97.7%.

Some of these lines once more (series 4):
It gave 94.9% for remaining activity (CSNK2A1 (Homo sapiens, UniProt P68400)).
For KIT (Homo sapiens, UniProt P10721): remaining activity read 91.3%.
For EPHA5 (Homo sapiens, UniProt P54756): remaining activity read 86.5%.
